Assay results from different studies.
Compare with care: the assays were run in different laboratories.
Target: Dual specificity tyrosine-phosphorylation-regulated kinase 1B (DYRK1B, Homo sapiens, UniProt Q9Y463)

Structure (SMILES) | effect on | mode | technique | tested at | quantity | value
C=CC(=O)N1CCC(COCC(=O)N2CCN(c3nc(-c4cnc(N)nc4C(F)F)nc(N4CCOC[C@@H]4C)n3)CC2)CC1 | binding | – | competition with immobilised ligand | 1 µM | remaining binding | 100%
COc1cc(-c2cncc3c2CN(C)Cc2cc(N4CCNCC4)ccc2-3)cc(OC)c1OC | enzyme activity | inhibitor | – | 1 µM | remaining activity | 110%
CCCCC(=O)Nc1ccc(-c2ccc3ncn(CCC)c(=O)c3c2)cn1 | binding | – | competition with immobilised ligand | 0.5 µM | remaining binding | 77%
FC(F)(F)Oc1cccc(-c2cnc3ccc(-c4ccncc4)nn23)c1 | cell-free assay | – | competition with immobilised ligand | 5 µM | remaining binding | 0.3%
CN1CC(Oc2cnc(C#N)cc2-c2ccn3nc(NC(=O)C4CC4)cc3c2)C1 | enzyme activity | inhibitor | – | 1 µM | inhibition | 34%
N#Cc1ccc(NC(=O)Nc2ccccc2)cc1 | cell-free assay | – | competition with immobilised ligand | 25 µM | remaining binding | 45%
Cc1cc([C@@H](C)Nc2ccccc2C(=O)O)c2nc(N3CCC(F)(F)CC3)c(C#N)c(=O)n2c1 | binding | – | competition with immobilised ligand | 10 µM | remaining binding | 100%
CNc1ncc2c(/C=C/C(=O)N3CCC(OC)CC3)nn(Cc3cccc(C(F)(F)F)c3)c2n1 | enzyme activity | inhibitor | radiometric | 1 µM | remaining activity | 86%

A few entries again:
Structure (SMILES) | effect on | mode | technique | tested at | quantity | value
N#Cc1ccc(NC(=O)Nc2ccccc2)cc1 | cell-free assay | – | competition with immobilised ligand | 25 µM | remaining binding | 45%
